Experimental data of several laboratories.

O=C1CC[C@H](N2Cc3cc(-c4ccn5ncc(Cl)c5n4)ccc3C2=O)C(=O)N1  CLint (human liver microsomes; 0.5 mg/mL protein): 2.2 µL/min/mg
O=C(CN1CN(c2ccccc2)C2(CCN(C(=O)c3ccc4[nH]ncc4c3)CC2)C1=O)Nc1ccccn1  CLint (mouse liver microsomes): 600 µL/min/mg protein
C[C@H]1CN(C(=O)c2cn(-c3ccnc(N)n3)c3cc(C#CC4(O)CCCCC4)ccc23)CCN1  CLint (human liver microsomes; 1 µM, pH 7.4): 25.8 µL/min/mg
O=C(CN1CN(c2ccccc2)C2(CCN(C(=O)c3cc4cn[nH]c4cn3)CC2)C1=O)NCC(F)(F)F  CLint (mouse liver microsomes): 85 µL/min/mg protein
C[C@](C(=O)NC1CCC(F)(F)CC1)(c1cncnc1)N(C(=O)[C@H](F)Cl)c1ccc(OC(F)(F)F)cc1  CLint (mouse liver microsomes; concentration not given, pH 7.4): 71.6 µL/min/mg
CN(CC(F)(F)F)C(=O)CN1CN(c2ccccc2)C2(CCN(C(=O)c3ccc4[nH]ncc4c3)CC2)C1=O  CLint (human liver microsomes): 34 µL/min/mg protein
Cc1ncsc1-c1ccc([C@@H]2CCCCCCNC(=O)C[C@@H]3N=C(c4ccc(cc4)OCCCCCC(=O)N[C@@H](C(C)(C)C)C(=O)N4C[C@H](O)C[C@H]4C(=O)N2)c2c(sc(C)c2C)-n2c(C)nnc23)cc1  CLint (human liver microsomes; 1 µM, 37 °C): 300 mL/min/kg
O=C(NC1CCC(F)(F)CC1)C(c1cncnc1)N(C(=O)C(F)Cl)c1ccc(-c2cncs2)cc1 (stereo not drawn)  CLint (mouse liver microsomes; concentration not given, pH 7.4): 38.9 µL/min/mg
CC(C)=CCc1cc(C(=O)/C=C/c2ccc(O)cc2)c(O)cc1O  CLint (phase I metabolism; dog liver microsomes): 13.9 µL/min/mg

Some of these lines once more:
Cc1ncsc1-c1ccc([C@@H]2CCCCCCNC(=O)C[C@@H]3N=C(c4ccc(cc4)OCCCCCC(=O)N[C@@H](C(C)(C)C)C(=O)N4C[C@H](O)C[C@H]4C(=O)N2)c2c(sc(C)c2C)-n2c(C)nnc23)cc1  CLint (human liver microsomes; 1 µM, 37 °C): 300 mL/min/kg
